Results collected from several papers.
Lines come from different studies, so protocols differ. ± marks the error that the study gave.

CC(C)(CC(=O)N1CCCC1)NCC(=O)N1C[C@@H](F)C[C@H]1C#N — AUC(0-tau) at steady state (Chinese type 2 diabetes patients, plasma; oral, 100 mg once daily, multiple doses): 1420 ng·h/mL
CCc1cc2cc(OC)cc(C(=O)c3ccc(OC)cc3)c2o1 — microsomal CLint (metabolic stability; Sprague-Dawley rat, liver microsomes; 1 µM, pH 7.4): 549 µL/min/mg
CNC(=O)c1ccc(-c2cnc3ncc(Cc4ccc5ncccc5c4)n3n2)cc1F — Vz/F (mean) (human, moderate hepatic impairment (Child-Pugh B), plasma; oral, 200 mg single dose): 340 L
Cc1nc2cccc(OCC(C)(C)C(=O)NC(C)C)c2c(N)c1C(=O)O — Tmax (Sprague-Dawley rat both sexes, plasma; dietary, 60 mg/kg/day, day 90): 4.5 h
CC1=C(/C=C/C(C)=C/C=C/C(C)=C/C(=O)Nc2ccc(O)cc2)C(C)(C)CCC1 — Km (substrate, measured: 4'-hydroxy metabolite formation; human liver microsomes; 3 h, pH 7.4): 17.8 ± 9.4 µM
Cc1cc(Oc2cncnc2)cc(C(=O)Nc2ccc(F)cn2)n1 — unbound brain concentration (CD-1 mouse, male, brain; intraperitoneal, 3.0 mg/kg, 15 min): 115 nM
CC1(C)C(/C=C/C=C/C=C/C=C2\N(CCCCS(=O)(=O)O)c3ccc4ccccc4c3C2(C)C)=[N+](CCCCS(=O)(=O)[O-])c2ccc3ccccc3c21 — photoacoustic signal slope (glucose solution in agar phantom; 21 MHz, gain 40 dB; relative to: India Ink): 1.13 ± 0.06 µM⁻¹
Cc1cc(Nc2cc3ncccc3c(N[C@@H]3C[C@H]4CC[C@@H](C3)N4CCC#N)n2)n[nH]1 — Cmax (dog, female, plasma; oral, 100 mg/kg/day, week 28 day 197, 39-week repeat dose; mean): 545 ng/mL
C[C@@H](O)[C@H]1C(=O)N2C(C(=O)O)=C(S[C@@H]3CN[C@H](C(=O)N(C)C)C3)[C@H](C)[C@H]12 — time above MIC (pig, Danish Landrace, plasma; intravenous, 1000 mg over 10 min, 450 min dosing interval, added: 0.25 µg/mL MIC; relative to: dosing interval): 83%
CCCC[C@@H]1NC(=O)[C@@H](NC(=O)[C@H](CCC(=O)O)NC(=O)CNC(=O)CN2CCN(CC(=O)O)CCN(CC(=O)O)CCN(CC(=O)O)CC2)CCCCNC(=O)C[C@@H](C(N)=O)NC(=O)[C@H](C(C)C)NC(=O)[C@@H]2CCCN2C(=O)[C@H](CCCNC(=N)N)NC(=O)CNC(=O)[C@H](Cc2c[nH]c3ccccc23)NC(=O)[C@H](CCCNC(=N)N)NC(=O)[C@@H](Cc2ccccc2)NC(=O)[C@H](Cc2c[nH]cn2)NC(=O)[C@H](CCC(=O)O)NC1=O [indium-111 labelled] — tissue uptake (C57 mice, B16/F10 lung metastatic melanoma, bone; intravenous, 0.037 MBq, 4 h): 0.03 ± 0.03 %ID/g
Cc1cccc(-c2nc(Nc3ccncc3)c3ccn(C)c3n2)n1 — t1/2 (mouse, CD1, plasma; oral, 10 mg/kg): ~2 h
Cn1c(-c2ccc(C(N)=O)cc2F)nnc1C(C)(C)Oc1c(F)cc(Cl)cc1F — mean half-life (young non-Japanese humans, plasma; oral, 2 mg once daily, last day of 14 days): 86.2 h
CC(=O)N[C@H](CSSC[C@H](N)C(=O)O)C(=O)N[C@H](C)C(=O)N[C@H](CCCNC(=N)N)C(=O)N[C@H](CCCNC(=N)N)C(=O)N[C@H](CCCNC(=N)N)C(=O)N[C@H](C)C(=O)N[C@H](CCCNC(=N)N)C(N)=O — reverse disulfide exchange rate constant (human whole blood; 37 °C, from biotransformed products): 0.0025 min⁻¹
COc1cc2c(c(N3CCN(C)CC3)c1)O[C@@H](C(=O)Nc1ccc(N3CCOCC3)cc1)CC2 — brain concentration ratio (brain stem or hippocampus; dose-normalized; relative to: rat over dog): ~2 fold
C=CC(N)CCC(=O)O (stereo not shown) — apparent clearance (CL/F) (male Sprague-Dawley rat, plasma; oral, 1.0 mg/kg, formulation 4, added: proline and tryptophan 100 mg/kg each): 9.52 ± 0.433 mL/min/kg
CC(C)C[C@H](NC(=O)[C@H](CCc1ccccc1)NC(=O)CN1CCOCC1)C(=O)N[C@@H](Cc1ccccc1)C(=O)N[C@@H](CC(C)C)C(=O)[C@@]1(C)CO1 — Vss (LC-MS; human, plasma; intravenous push, 11 mg/m^2): 42.5 L
O=C(NC[C@H]1CN(c2ccc(N3CCOCC3=O)cc2)C(=O)O1)c1ccc(Cl)s1 — apparent volume Vz/F (Sprague-Dawley rat, male, plasma; oral, 10 mg/kg, added: naringenin 10 mg/kg/day oral, 2 weeks): 16.2 ± 8.42 L/kg
O=C(CCCCCCC(=O)Nc1ccccc1)NO — AUC(0-7 h) (patients, serum; oral, 1000 mg, cycle -1, alone): 37.5 µM·h
Cc1nc(C(=O)NCC(=O)O)c(O)c2ccc(Oc3ccccc3)cc12 — moderate adverse events (healthy subjects; oral, 100 mg; relative to: subjects): 11.1%
Ac-CGWWLALALALALALALALALALALWWA-NH2 (N-acetyl, C-amide) — folded core length (circular dichroism; water/TFE, extrapolated to water): 11 residues
CC[C@H](C)[C@H](NC(=O)[C@H](CC(C)C)NC(=O)[C@H](Cc1c[nH]c2ccccc12)NC(=O)[C@H](C)NC(=O)[C@@H](NC(=O)[C@H](Cc1ccccc1)NC(=O)[C@H](CC(=O)O)NC(=O)[C@H](CCCNC(=N)N)NC(=O)[C@H](C)NC(=O)[C@H](C)NC(=O)[C@H](CC(C)C)NC(=O)[C@H](C)NC(=O)[C@H](CC(=O)O)NC(=O)[C@H](CC(C)C)NC(=O)[C@@H](NC(=O)[C@@H](NC(=O)[C@H](C)NC(=O)[C@H](CC(C)C)NC(=O)[C@H](CCC(=O)O)NC(=O)[C@H](CO)NC(=O)[C@H](CO)NC(=O)[C@H](Cc1ccccc1)NC(=O)[C@@H](NC(=O)CNC(=O)[C@H](CCC(=O)O)NC(=O)CNC(=O)[C@@H](N)Cc1cnc[nH]1)[C@@H](C)O)[C@@H](C)O)[C@@H](C)CC)[C@@H](C)CC)C(=O)N[C@@H](C)C(=O)N[C@H](C(=O)N[C@@H](CCCCN)C(=O)N[C@H](C(=O)N[C@H](C(=O)N[C@@H](CC(=O)O)C(=O)N[C@@H](CCCCN)C(=O)N[C@@H](CCCCN)C(=O)N[C@@H](CCCCN)C(=O)N[C@@H](CCCCN)C(=O)N[C@@H](CCCCN)C(=O)N[C@@H](CCCCN)C(N)=O)[C@@H](C)O)[C@@H](C)CC)[C@@H](C)O — Vss over body weight (healthy human subjects, plasma; intravenous infusion, 1 mg glepaglutide): ~20%
COc1cccc(-c2ccc(NC(=O)C3=C(C(=O)O)CCC3)c(F)c2)c1 — AUC(0-24h) (human, male, plasma; oral, 50 mg once daily, day 0, geometric mean, pre-dosed): 107000 ng·h/mL
CC[C@H](C)[C@H](NC(=O)[C@H](C)NC(=O)[C@H](CCCNC(=N)N)NC(=O)[C@H](CCCNC(=N)N)NC(=O)[C@H](CC(N)=O)NC(=O)[C@H](CCCNC(=N)N)NC(=O)[C@H](CCCNC(=N)N)NC(=O)[C@H](C)NC(=O)[C@@H](NC(=O)[C@H](CC(C)C)NC(=O)[C@@H](NC(=O)[C@@H](NC(=O)[C@H](CS)NC(=O)[C@H](CCCCN)NC(=O)[C@@H](N)CCCNC(=N)N)C(C)C)[C@@H](C)CC)C(C)C)C(=O)N[C@H](C(=O)N[C@H](C(=O)N[C@@H](CC(C)C)C(=O)N[C@@H](CS)C(=O)N[C@@H](CCCNC(=N)N)C(=O)O)[C@@H](C)CC)C(C)C — single disulfide form (LC-MS; PBS; 0.1 mg/mL): 43%
Cc1cccc(Nc2ccccc2C(=O)O)c1C — EC20 (cytochrome c release, ELISA; BALB/cByJ female mouse liver mitochondria; 30 min; relative to: alamethicin maximal release): > 200 µM
CC(C)[C@H](N)C(=O)OCC1(CO)C/C1=C/n1cnc2c(=O)[nH]c(N)nc21.Cl (mixture of isomers) — elimination half-life (measured: prodrug; Swiss-Webster mouse (male), plasma; intravenous, 24.6 mg/kg, two-compartment model): 5.02 h
CCOC(=O)c1nn(C(=O)C2CC2)c2ccncc12 — half-life (chemical stability; aqueous buffer; pH 7.4): > 4 h
NC(=O)c1cnccn1 — EC20 (mitochondrial swelling; BALB/cByJ female mouse liver mitochondria; 30 min, added: succinate + rotenone; relative to: CaCl2 maximal swelling): > 400 µM
O=S(=O)(O)Oc1cccc(O)c1O — mean concentration (human, fasted baseline, cerebrospinal fluid): 3.8 nM
CC(C)=CCC[C@]1(C)[C@@H](CC=C(C)C)C[C@@]2(CC=C(C)C)C(=O)[C@]1(C(=O)C(C)C)C(=O)C(CC=C(C)C)=C2O — EC20 (cytochrome c release, ELISA; mouse liver mitochondria; 30 min; relative to: maximal release by alamethicin): > 10 µM
CNCc1ccc(-c2[nH]c3cc(F)cc4c3c2CCNC4=O)cc1 — half-life (human, plasma; oral, 300 mg, fed, high-fat meal, median): 20.5 h
COc1cc(CNC(=O)CCCC/C=C/C(C)C)ccc1O — EC20 (mitochondrial swelling; BALB/cByJ female mouse liver mitochondria; 30 min, added: succinate + rotenone; relative to: CaCl2 maximal swelling): > 200 µM
NCCCC[C@@H]1NC(=O)[C@@H](Cc2c[nH]c3ccccc23)NC(=O)[C@H](c2ccccc2)NC(=O)[C@@H]2C[C@@H](OC(=O)NCCN)CN2C(=O)[C@H](Cc2ccccc2)NC(=O)[C@H](Cc2ccc(OCc3ccccc3)cc2)NC1=O — alpha half-life (radioimmunoassay; healthy human male volunteers, plasma; subcutaneous, 1200 µg): 1.7 ± 0.4 h
O=C(O)c1cc(-c2ccc(F)cc2F)ccc1O — EC20 (mitochondrial swelling; BALB/cByJ female mouse liver mitochondria; 30 min, added: succinate + rotenone; relative to: CaCl2 maximal swelling): > 200 µM
C#C[C@]1(CO)O[C@@H](n2cnc3c(N)nc(F)nc32)C[C@@H]1O — AUC(0-168 h) (human, plasma; oral, 30 mg once weekly, week 1): 3.26 µM·h
[2H]C([2H])([2H])Oc1cc2c(cc1OC([2H])([2H])[2H])C1CC(=O)C(CC(C)C)CN1CC2 (stereo not shown) — dose-normalized AUC(0-inf) (measured: deuterated β-HTBZ; healthy human volunteers, plasma; oral, 6 mg single dose, standard meal): 4.8 ng·h/mL
CN1CCN(c2ccc3nc(-c4c(N)c5c(F)cccc5[nH]c4=O)[nH]c3c2)CC1 — AUC (patients, plasma; oral, 300 mg daily 5 days on 2 off, day 19, AUC 0-24 h minimum, added: gemcitabine and capecitabine): 1200 ng·h/mL
CC[C@@H]1C(=O)N(C)c2cnc(Nc3ccc(C(=O)N[C@H]4CC[C@H](N5CCN(CC6CC6)CC5)CC4)cc3OC)nc2N1C(C)C — Vss (non-compartmental analysis; human, plasma; intravenous infusion, 450 mg (first infusion)): 3540 L
O=C(O)c1cccc(CN2CN(C3CCCCC3)C3(CCN(CCCC(=O)c4ccccc4)CC3)C2=O)c1 — rearing activity (rat Sprague Dawley female; 1000 mg/kg/day, 4 to 8 min after start, first session): 2 counts
CN(C)C(=N)N=C(N)N — EC20 (mitochondrial swelling; BALB/cByJ female mouse liver mitochondria; 30 min, added: succinate + rotenone; relative to: CaCl2 maximal swelling): > 400 µM
CNC(=O)c1cc(Oc2ccc(NC(=O)Nc3ccc(Cl)c(C(F)(F)F)c3)c(F)c2)ccn1 — AUC(0-24h) change (human; oral, dose not given, added: esomeprazole concomitant; relative to: without esomeprazole): -3.9%
COc1cc2c(cc1OC)CN(CCc1ccc(NC(=O)c3cc(OC)c(OC)cc3NC(=O)c3cnc4ccccc4c3)cc1)CC2 — clearance (human, plasma; intravenous infusion, 6 mg/kg): 226 mL/min
CCCC[C@H](NC(C)=O)C(=O)N[C@H]1CCC(=O)NC[C@@H](C(=O)N[C@@H](Cc2c[nH]c3ccccc23)C(N)=O)NC(=O)[C@H](CCCNC(=N)N)NC(=O)[C@@H](Cc2ccccc2)NC(=O)[C@H](Cc2c[nH]cn2)NC1=O — Tmax (beagle dog, female, plasma; subcutaneous, 1.5 mg/kg daily, day 14): 1 h
Oc1ccc(/C=C/c2cc(O)cc(O)c2)cc1 — EC20 (mitochondrial swelling; BALB/cByJ female mouse liver mitochondria; 30 min, added: succinate + rotenone; relative to: CaCl2 maximal swelling): > 200 µM
O=C(c1cccnc1-c1ccncc1)N1CCC(O)(Cc2ccccc2)CC1 — AUCinf (healthy human, plasma; oral, 300 mg once daily, day 1, arithmetic mean): 2040 ng·h/mL
COc1ccc2c(c1)c(CC(=O)O)c(C)n2C(=O)c1ccc(Cl)cc1 — EC20 (mitochondrial swelling; BALB/cByJ female mouse liver mitochondria; 30 min, added: succinate + rotenone; relative to: CaCl2 maximal swelling): > 800 µM
Cc1cc(C)c2c(c1)[C@@H](N(Cc1cc(C(F)(F)F)cc(C(F)(F)F)c1)c1nnn(C)n1)CCCN2C[C@H]1CC[C@H](C(=O)O)CC1 — AUC(0-tau) at steady state (human, dyslipidemic patients, plasma; oral, 100 mg daily, geometric mean, added: rosuvastatin): 5960 ng·h/mL

Repeated from above:
Cc1cccc(-c2nc(Nc3ccncc3)c3ccn(C)c3n2)n1 — t1/2 (mouse, CD1, plasma; oral, 10 mg/kg): ~2 h
Cn1c(-c2ccc(C(N)=O)cc2F)nnc1C(C)(C)Oc1c(F)cc(Cl)cc1F — mean half-life (young non-Japanese humans, plasma; oral, 2 mg once daily, last day of 14 days): 86.2 h
CC(=O)N[C@H](CSSC[C@H](N)C(=O)O)C(=O)N[C@H](C)C(=O)N[C@H](CCCNC(=N)N)C(=O)N[C@H](CCCNC(=N)N)C(=O)N[C@H](CCCNC(=N)N)C(=O)N[C@H](C)C(=O)N[C@H](CCCNC(=N)N)C(N)=O — reverse disulfide exchange rate constant (human whole blood; 37 °C, from biotransformed products): 0.0025 min⁻¹
COc1cc2c(c(N3CCN(C)CC3)c1)O[C@@H](C(=O)Nc1ccc(N3CCOCC3)cc1)CC2 — brain concentration ratio (brain stem or hippocampus; dose-normalized; relative to: rat over dog): ~2 fold
C=CC(N)CCC(=O)O (stereo not shown) — apparent clearance (CL/F) (male Sprague-Dawley rat, plasma; oral, 1.0 mg/kg, formulation 4, added: proline and tryptophan 100 mg/kg each): 9.52 ± 0.433 mL/min/kg
CC(C)C[C@H](NC(=O)[C@H](CCc1ccccc1)NC(=O)CN1CCOCC1)C(=O)N[C@@H](Cc1ccccc1)C(=O)N[C@@H](CC(C)C)C(=O)[C@@]1(C)CO1 — Vss (LC-MS; human, plasma; intravenous push, 11 mg/m^2): 42.5 L
